Published values gathered from unrelated publications.
Numbers after ± are the reported error.

Structure (SMILES) | test | system | conditions | scale | endpoint | result
Cn1ccc(-c2cc(Cl)c(Cl)c3[nH]c4c(c23)CN(C(=O)CO)CC4)n1 | – | male C57BL/6 cGAS I309T mice, concanavalin A, spleen | oral, 100 mg/kg, 16 h after concanavalin A | – | cGAMP concentration | 11.9 µM
CC(C)(Sc1cc[n+]([O-])cc1-c1ccc(C#N)c2ccccc12)C(=O)OC1OC(C(=O)O)C(O)C(O)C1O (stereo not drawn) | – | plasma | oral, 15 mg, normal renal function, fasted | – | AUC(0-inf) | 250 ng·h/mL
COc1cc(NC(C)=O)c2c(c1O)-c1c(OC)c(OC)cc3c1C(C2)N(C)CC3 (stereo not drawn) | – | rat liver homogenate | 5 µg/mL, 40 d, -20 °C, long-term storage | – | remaining compound | 88.2 ± 0.6%
O=c1c(/C=N/NC(=S)N/N=C/c2cc(Cl)ccc2O)coc2ccccc12 | cyclic voltammetry | anhydrous DMF | Cu2+ complex, glassy carbon electrode | – | peak potential separation | 0.155 mV
C=CC(=O)Nc1cc(Nc2nccc(-c3cn(C)c4ccccc34)n2)c(OCC(F)(F)F)nc1N(C)CCN(C)C | LC-MS | human liver microsomes | 3 µM, 60 min, with: ticlopidine 24 µM | relative to: no inhibitor | remaining parent compound | 61%
CC1=C(/C=C/C(=O)N2CCN(C(N)=O)CC2)C(C)(C)CCC1 | – | female mice, plasma | oral, 20 mg/kg | – | Cmax | 1.45 nmol/g
CCN(CC)CCN=S(=O)(c1ccccc1)N1CCCCC1 (stereo not drawn) | HPLC | – | pH 7.5 | – | chromatographic logD | 1.9
CC[C@H](C)[C@H](NC(=O)[C@H](Cc1ccccc1)NC(=O)[C@H](CC(=O)O)NC(=O)[C@H](CCCNC(=N)N)NC(=O)[C@H](Cc1ccccc1)NC(=O)[C@H](Cc1ccccc1)NC(=O)[C@H](CCCN)NC(=O)[C@H](CO)NC(=O)[C@H](CC(C)C)NC(=O)[C@H](CCCNC(=N)N)NC(=O)[C@H](CCSC)NC(=O)[C@H](C)N)C(=O)N[C@@H](CCCCN)C(=O)N[C@@H](CCC(N)=O)C(=O)N[C@@H](CCCNC(=N)N)C(=O)N[C@@H](CCCCN)C(=O)N[C@@H](CCCCN)C(=O)O | circular dichroism | 20% TFE in PBS | 200 µM, pH 7.4, 25 °C | – | helicity | 17.4%
CC(=O)OCCn1c2ccc([N+](=O)[O-])cc2c(=O)n1Cc1ccccc1 | resazurin | peritoneal macrophages, BALB/c mice | 48 h, 10% FBS | – | CC50 | 403 ± 13.4 µM
CC[C@H](C)[C@H](NC(=O)[C@H](CCCCN)NC(=O)[C@H](CS)NC(=O)[C@H](C)NC(=O)[C@H](CC(N)=O)NC(=O)[C@H](CCCNC(=N)N)NC(=O)[C@H](CCCNC(=N)N)NC(=O)[C@H](CC(N)=O)NC(=O)[C@H](CCCNC(=N)N)NC(=O)[C@H](CCCNC(=N)N)NC(=O)[C@H](C)NC(=O)[C@H](CS)NC(=O)[C@H](CO)NC(=O)[C@@H](NC(=O)[C@@H](NC(=O)[C@H](CS)NC(=O)[C@H](CCCCN)NC(=O)[C@@H](N)CCCNC(=N)N)C(C)C)[C@@H](C)CC)C(=O)N[C@@H](CC(C)C)C(=O)N[C@@H](CS)C(=O)N[C@@H](CC(N)=O)C(=O)O | LC/MS | PBS | 0.1 mg/mL | relative to: LC peak area | two-disulfide form | 63%
CC[C@H](C)[C@H](NC(=O)[C@H](Cc1ccccc1)NC(=O)[C@H](CC(=O)O)NC(=O)[C@H](CCCNC(=N)N)NC(=O)[C@H](Cc1ccccc1)NC(=O)[C@H](Cc1ccccc1)NC(=O)[C@H](CCN)NC(=O)[C@H](CO)NC(=O)[C@H](CC(C)C)NC(=O)[C@H](CCCNC(=N)N)NC(=O)[C@H](CCSC)NC(=O)[C@H](C)N)C(=O)N[C@@H](CCCN)C(=O)N[C@@H](CCC(N)=O)C(=O)N[C@@H](CCCNC(=N)N)C(=O)N[C@@H](CCCCN)C(=O)N[C@@H](CCCCN)C(=O)O | circular dichroism | 20% TFE in PBS | 200 µM, pH 7.4, 25 °C | – | helicity | 16.9%
O=C(CCC(C(=O)[O-])N1CCN(C(CCC(=O)NCC(O)CO)C(=O)[O-])Cc2cccc(n2)CN(C(CCC(=O)NCC(O)CO)C(=O)[O-])CC1)NCC(O)CO.[153Gd+3] (stereo not drawn) | equilibrium dialysis | human plasma | 0.01-5 µmol/mL, 2 h, 37 °C | – | plasma protein binding | 0.5%
N=C(N)NCCC[C@@H]1NC(=O)[C@H](Cc2c[nH]c3ccccc23)NC(=O)[C@@H](CC2CCCCC2)NC(=O)[C@@H]2CCCN2C(=O)[C@@H](NC(=O)CCc2ccccc2)CCCNC1=O | – | C57BL/6J mouse, plasma spinal cord | subcutaneous, 1 mg/kg single dose | – | MRT(0-inf) | 2.71 h
CC(C)[C@H](NC(=O)CNC(=O)[C@H](CCC(N)=O)NC(=O)[C@H](C)N)C(=O)O | – | human, plasma | intravenous infusion, 10 mg/kg single, 15 min infusion, geometric mean | – | AUC(0-inf) | 175 ng·h/mL
CC(C)(Sc1ccncc1-c1ccc(C#N)c2ccccc12)C(=O)OC1OC(C(=O)O)C(O)C(O)C1O (stereo not drawn) | – | plasma | oral, 15 mg, severe renal impairment | relative to: impaired over normal renal function | AUC(0-inf) ratio | 416%
COc1ccc(S(=O)(=O)N2CCc3ccccc3C2)cc1N1CCN(C(=O)c2ccc(F)cc2C(F)(F)F)CC1 | – | rat, plasma | intravenous, 10 mg/kg, 3 h, single dose | – | concentration | 77.9 ng/mL
CC(=O)N[C@H](CCNC(=O)c1cc(NC(=O)c2cc(NC(=O)c3cc(NC(=O)c4nccn4C)cn3C)cn2C)cn1C)C(=O)Nc1cn(C)c(C(=O)Nc2cc(C(=O)Nc3cc(C(=O)Nc4cc(C(=O)NCCCN(C)CCCN[14C](=O)c5cccc([14C](=O)O)c5)n(C)c4)n(C)c3)n(C)c2)n1 | – | NSG male mice, LNCaP xenograft, liver | intraperitoneal, 20 nmol per animal, 24 h | relative to: LNCaP-grafted over naive mice | tissue concentration ratio | ~2 fold
NCC(=O)N1CCC[C@H]1C(=O)N1C[C@H](O)C[C@H]1C(=O)O | potentiometric titration | – | 37 °C, with: Fe(III) | – | log beta | 12
Nc1ncnc(NCC2CCN(C(=O)C(O)CO)CC2)c1-c1ccc(Oc2ccccc2)cc1 (stereo not drawn) | – | healthy male human, plasma | oral, 75 mg evobrutinib | – | fraction of total drug exposure | > 10%
CC(=O)[CH](C(C)=O)[Pt-2]1([S+](C)C)[O]C(C)=CC(C)=[O+]1 (stereo not drawn) | – | rat, blood | intravenous, 20 mg/kg, single dose | – | AST | 92.3 ± 8.6 U/L

Structure (SMILES) | test | system | conditions | scale | endpoint | result
COC(=O)C(c1ccccc1Cl)N1CCC(SCC(=O)c2cccc(OC)c2)C(=CC(=O)O)C1 (stereo not drawn) | – | acetonitrile | -20 °C | – | stock solution stability time | ≥ 2 months
COc1cc(C)c(Cc2ccc(O)cc2)cc1[C@@H]1S[C@H](CO)[C@@H](O)[C@H](O)[C@H]1O | – | Japanese T2DM patients, plasma | 5 mg luseogliflozin, day 7, once daily | – | Cmax | 15.3 ± 2.37 ng/mL
CCCC[C@H](NC(=O)CNC(=O)CNC(=O)CN1CCN(CC(=O)O)CCN(CC(=O)O)CCN(CC(=O)O)CC1)C(=O)N[C@H]1CC(=O)NCCCC[C@@H](C(N)=O)NC(=O)[C@H](Cc2c[nH]c3ccccc23)NC(=O)[C@H](CCCNC(=N)N)NC(=O)[C@@H](Cc2ccccc2)NC(=O)[C@H](Cc2c[nH]cn2)NC1=O [gallium-67 labelled] | – | C57 mice, female, B16/F1 melanoma, tumour over muscle | intravenous, 0.037 MBq, 24 h | – | tumour to tissue uptake ratio | 25.5
C[C@H]1NSc2nc(=O)c3[nH]ccc3n2Cc2ccc(Cl)cc21 | – | dog, both sexes, plasma | oral, 100 mg/kg/day | relative to: dog over human 15 mg | exposure ratio | 10
CCCC(CCC(=O)O)NC(=O)c1ccc2c(c1)OCO2 (stereo not drawn) | – | male Sprague-Dawley rat, plasma | oral, 200 mg/kg of parent drug | – | Tmax | 1.5 h
OCc1cn(Cc2ccc(-c3noc(-c4ccc(OCC[18F])c(C(F)(F)F)c4)n3)cc2)nn1 | – | rat, bone | intravenous, 2 h | – | tracer uptake | 0.51 %ID/g
Cc1cn(-c2ccc(-c3cc(C)c(N[C@@H](C)c4ccc(F)cc4)nn3)nc2O[11CH3])cn1 | – | rhesus macaque, male, arterial plasma | intravenous, 2 mCi, 30 min | – | parent compound in plasma | > 70%
COc1ccc(/C=C/c2ccc(-c3ccc(C)cn3)nc2)cc1 | TCSPC | DMF | – | – | radiative decay rate constant | 0.48 ns⁻¹
COCCOCCOCCOCCOCCOCCOCCOCCOCCOCCOCCOCCNC(=O)CCC1(Cc2ccccc2)c2ccccc2-c2ccc(-c3sc(-c4c5c(c(-c6sc(-c7ccc8c(c7)C(CCC(=O)NCCOCCOCCOCCOCCOCCOCCOCCOCCOCCOCCOCCOC)(Cc7ccccc7)c7ccccc7-8)c7c6OCCO7)c6nsnc46)N=S=N5)c4c3OCCO4)cc21 (stereo not drawn) | – | aqueous solution | – | – | zeta potential | -24.3 ± 1.9 mV
O=C(NC12CC3CC(CC(Cl)(C3)C1)C2)NC12CC3CC(CC(Cl)(C3)C1)C2 | – | sodium phosphate buffer | – | relative to: daunorubicin | fold solubility increase | ~20 fold
CN(C)c1cc(CN2CCCCC2)c(O)c2c1C[C@H]1C[C@H]3[C@H](N(C)C)C(O)=C(C(N)=O)C(=O)[C@@]3(O)C(O)=C1C2=O | – | cynomolgus monkey | oral, 5 mg/kg | relative to: tigecycline | oral plasma exposure | 3 fold
NC12CNCCNCC(NCc3ccc(CNC(=O)CCCC(=O)NCc4ccc(-c5nncnn5)cc4)cc3)(CNCCNC1)CNCCNC2.[64Cu+2] | OLINDA dosimetry | spleen | 48 h pretargeting interval, with: huA33-TCO pretargeting | – | mean absorbed dose | 0.0119 rad/mCi
CN(Cc1ccc(F)cc1)Cc1cc(=O)oc2cc(O)ccc12 | – | HepG2 cell medium | 0.5 mM, 180 min | – | remaining intact compound | > 99%
Cn1c(=O)oc2ccc(-c3ccc(CC(C#N)NC(=O)C4CNCCCO4)c(F)c3)cc21 (stereo not drawn) | – | human | oral, 10 mg once daily, TEAE, multiple ascending dose | – | AST increased incidence | 0%
CC[C@H](C)[C@H](NC(=O)[C@H](Cc1c[nH]c2ccccc12)NC(=O)[C@@H]1CCCN1C(=O)[C@H](Cc1ccccc1)NC(=O)[C@@H](NC(=O)[C@@H](N)Cc1c[nH]c2ccccc12)[C@@H](C)CC)C(=O)N[C@@H](CCC(N)=O)C(=O)N[C@@H](CC(C)C)C(=O)NCC(=O)NCC(=O)N[C@H](CCCCN)C(=O)N[C@H](CC(C)C)C(=O)N[C@H](C)C(=O)N[C@H](CCCCN)C(=O)N[C@H](CC(C)C)C(=O)N[C@H](C)C(=O)N[C@H](CCCCN)C(=O)N[C@H](CCCCN)C(=O)N[C@H](CC(C)C)C(=O)N[C@H](C)C(=O)N[C@H](CCCCN)C(=O)N[C@H](CC(C)C)C(=O)N[C@H](C)C(=O)N[C@H](CCCCN)C(=O)O | MALDI-TOF | mouse | intravenous, dose not given | – | detection time in blood | ≥ 4 h
CC(=O)N[C@H](CCCCN)C(=O)N[C@H](CC(C)C)C(=O)N[C@H](CCCCN)C(=O)N[C@H](CO)C(=O)N[C@H](CC(C)C)C(=O)N[C@H](CC(C)C)C(=O)N[C@H](CCCCN)C(=O)N[C@@H](C(=O)N[C@H](CC(C)C)C(=O)N[C@H](CO)C(=O)N[C@H](CCCCN)C(=O)N[C@H](C)C(=O)N[C@H](CCCCN)C(=O)N[C@H](CCCCN)C(=O)N[C@H](CCCCN)C(=O)N[C@H](CC(C)C)C(=O)N[C@H](CC(C)C)C(=O)N[C@H](CCCCN)C(=O)N[C@@H](C(=O)N[C@H](C)C(=O)N[C@H](CC(C)C)C(=O)N[C@H](CCCCN)C(=O)N[C@H](C)C(=O)N[C@H](CC(C)C)C(=O)N[C@H](CO)C(=O)N[C@H](CCCCN)C(N)=O)[C@H](C)O)[C@H](C)O | RP-HPLC temperature profiling | – | pH 2, 5-80 °C, unit not given | relative to: control peptide | self-association parameter | 7.4
N=C(N)NCCC[C@H](NC(=O)[C@@H]1CCCN1C(=O)[C@H](Cc1ccccc1)NC(=O)[C@@H]1CCCN1C(=O)[C@H](Cc1c[nH]cn1)NC(=O)[C@@H](N)Cc1ccccc1)C(=O)O | – | Sprague-Dawley rats, male, plasma | oral, 50 mg/kg | – | MRT(0-t) | 47.9 ± 10.3 min
COc1ccc(S(=O)(=O)N/N=C/c2ccc(C#N)cc2)cc1OC | – | Wistar rat, male, rat liver microsomes | 10 µM, 24 h, pH 7.4, 37 °C | – | recovery | < 20%
CN1CCC[C@]1(C)/C=C/S(=O)(=O)NC(=O)Nc1c2c(cc3c1CCC3)CCC2 | – | human, urine | oral, 25 mg single dose | – | amount recovered in urine | 21.2 mg
